Experimental data of several laboratories.
Every numbered part comes from another study and shows a few of its results, in no order.

Study 1 — technique: protein-binding microarray; molecule type: double-stranded DNA, one strand shown; matrix: in vitro; tested at: 0.8 µM; notes: whole 60-bp probe, no competitor; direction: higher = stronger binding; endpoint: fluorescence intensity
Target: Centromere-binding protein 1, full length, N-terminal tag (CBF1, Saccharomyces cerevisiae, UniProt P17106, residues 1-351)
UniProt P17106, sequence (whole entry, looked up): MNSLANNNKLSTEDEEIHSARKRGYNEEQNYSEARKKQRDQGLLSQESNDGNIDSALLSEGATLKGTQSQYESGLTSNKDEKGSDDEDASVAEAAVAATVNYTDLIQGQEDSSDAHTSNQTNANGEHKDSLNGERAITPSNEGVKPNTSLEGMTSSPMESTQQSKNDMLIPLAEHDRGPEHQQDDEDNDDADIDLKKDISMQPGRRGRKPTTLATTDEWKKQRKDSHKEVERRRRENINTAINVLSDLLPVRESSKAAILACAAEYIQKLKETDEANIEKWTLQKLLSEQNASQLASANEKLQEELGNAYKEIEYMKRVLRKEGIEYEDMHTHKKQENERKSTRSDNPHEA
GAATGCCGGTGAGATCACGAGTAGCAGAAGAAATAGGTCTTGATTCGCTTGACGCTGCTG: 1250 a.u.
CTAGTCTTCTAGTGTCAGCTGTCTTACCTCACATTCGTCTTGATTCGCTTGACGCTGCTG: 644 a.u.
CTAAGGATAGGCAATGGTGACACTTCAACGCAATTCGTCTTGATTCGCTTGACGCTGCTG: 561 a.u.

Study 2 — target: Sox-I, HMG box (Salpingoeca helianthica); technique: Spec-seq; molecule type: double-stranded DNA, one strand shown; matrix: in vitro; tested at: not given; notes: whole probe, mean of replicates; baseline: not given; direction: lower = stronger binding; endpoint: relative binding energy
Construct (chain): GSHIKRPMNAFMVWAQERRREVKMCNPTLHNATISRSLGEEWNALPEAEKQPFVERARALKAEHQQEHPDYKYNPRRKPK
GAGTCGTCTCGTCAGCACCCATGTTCCGTAGAGCACTCAGGTC: -0.00722 ln ratio
GAGTCGTCTCGTCAGCACCCGCGTTCCGTAGAGCACTCAGGTC: 0.846 ln ratio
GAGTCGTCTCGTCAGCACCATCTTCCCGTAGAGCACTCAGGTC: 0.719 ln ratio
GAGTCGTCTCGTCAGCACCATATGACCGTAGAGCACTCAGGTC: 0.831 ln ratio

Single results of other studies
G3BP1 C-terminal RGG region: Ras GTPase-activating protein-binding protein 1, C-terminal RGG region (G3BP1, Homo sapiens, UniProt Q13283)
UniProt Q13283, sequence (whole entry, looked up): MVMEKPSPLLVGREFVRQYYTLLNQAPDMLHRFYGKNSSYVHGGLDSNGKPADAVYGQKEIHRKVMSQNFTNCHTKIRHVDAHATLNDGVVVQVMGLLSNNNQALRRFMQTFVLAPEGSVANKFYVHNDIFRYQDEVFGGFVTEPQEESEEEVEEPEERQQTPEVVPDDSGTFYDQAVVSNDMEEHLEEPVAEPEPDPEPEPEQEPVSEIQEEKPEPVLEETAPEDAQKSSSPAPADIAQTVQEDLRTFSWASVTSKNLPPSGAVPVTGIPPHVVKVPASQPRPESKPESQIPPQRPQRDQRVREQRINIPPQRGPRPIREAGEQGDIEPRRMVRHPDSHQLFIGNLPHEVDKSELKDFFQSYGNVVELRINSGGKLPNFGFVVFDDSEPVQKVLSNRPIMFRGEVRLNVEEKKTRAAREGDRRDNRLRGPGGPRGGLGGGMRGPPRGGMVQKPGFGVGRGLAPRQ
GGGAGUUCUACAGUCCGACGAUCACCAUGCAGGUGGGCAUCUUUGGGAAGUGGGGCAAGGGGAGGAUAGGGAGGGGGGUAACACUUUGGGAACAGGUGGUCCCAGGUCGUUUCUGGAAUUCUCGGGUGUCAAGG
log2 enrichment (G3BP1 C-terminal RGG region; RNA Bind-n-Seq; RNA, in vitro; 1 µM, whole 134-nt RNA, ends assumed, added: 150 mM KCl; baseline: input library, higher = stronger binding): -1.06

PhoQ, residues 284 288 289 292 302 303 NLMGRA
fold induction (PhoP, residues 12 14 15 18 19 LWHVM (Escherichia coli, UniProt P23836); Sort-seq, refers to: YFP reporter; E. coli; PhoQ-PhoP variant library, added: 10 µM Mg2+; baseline: high Mg2+ state, higher = stronger signaling): 12.8

GGGAGUUCUACAGUCCGACGAUCAGUCCUGUGCUACACAUCGUAUGUACCGAAUCGGGAGGGUUUUUGGGAAAAAAAGGGAAAGUAUUAUGUUACGCCGUUCGGAUCUGCACUUGGAAUUCUCGGGUGUCAAGG (7-deaza-guanosine replaces G)
log2 enrichment (Ras GTPase-activating protein-binding protein 1, full length (G3BP1, Homo sapiens, UniProt Q13283); RNA Bind-n-Seq; RNA, in vitro; 200 nM, whole 134-nt RNA, ends assumed, added: 150 mM LiCl; baseline: input library, higher = stronger binding): -0.657

GGGAGUUCUACAGUCCGACGAUCUUGUGGAAAACCCACAUGCUCCUCAGAAAGAUGAUGCCCUGGUGAUCACACACUACAACCGGACCCGACAGCAGGAAGAGAUGCUGGGGCUGGAAUUCUCGGGUGUCAAGG
log2 enrichment (G3BP1 C-terminal RGG region; RNA Bind-n-Seq; RNA, in vitro; 1 µM, whole 134-nt RNA, ends assumed, added: 150 mM KCl; baseline: input library, higher = stronger binding): -0.718

Excerpt of the above (study 1):
GAATGCCGGTGAGATCACGAGTAGCAGAAGAAATAGGTCTTGATTCGCTTGACGCTGCTG: 1250 a.u.
